# Published values collected from several papers.
# Every numbered part comes from another study and shows a few of its results, in no order. Substitutions count along the parent as printed.

# Set 1
# Target: ABI1, truncated, D143A, DHFR fusion (Arabidopsis thaliana)
# Method: DHFR PCA, deep sequencing
# Matrix: yeast
# Notes: methotrexate growth selection, single substitutions
# Together with: (+)-ABA 0 µM
# Baseline: wild-type fitted maximum
# Direction: higher = stronger binding
# Starting sequence: PYL1, truncated, DHFR fusion (Arabidopsis thaliana); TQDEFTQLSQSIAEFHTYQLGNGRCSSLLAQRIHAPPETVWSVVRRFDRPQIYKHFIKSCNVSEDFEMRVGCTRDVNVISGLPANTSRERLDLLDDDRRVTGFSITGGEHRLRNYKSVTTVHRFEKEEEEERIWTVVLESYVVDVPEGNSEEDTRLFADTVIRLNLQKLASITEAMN
Change,relative binding score [%]
I33A,2.64
D3H,24.2
E147L,6.3
D96A,1.05
E67S,11.2
G108A,2.37
R24A,5.98
S117E,6.42
N85I,59
H122L,-4.37
R113F,-4.07
E64H,28.8
H34W,5.58
S26C,16.6
R69G,3.68
S63D,31.4
L164D,4.69
Q7V,21.5
L28A,2.69

# Set 2
# Target: Sal-like protein 4, full length isoform A (SALL4, Homo sapiens, UniProt Q9UJQ4, residues 1-1053)
# Chain of UniProt Q9UJQ4 (whole entry, looked up): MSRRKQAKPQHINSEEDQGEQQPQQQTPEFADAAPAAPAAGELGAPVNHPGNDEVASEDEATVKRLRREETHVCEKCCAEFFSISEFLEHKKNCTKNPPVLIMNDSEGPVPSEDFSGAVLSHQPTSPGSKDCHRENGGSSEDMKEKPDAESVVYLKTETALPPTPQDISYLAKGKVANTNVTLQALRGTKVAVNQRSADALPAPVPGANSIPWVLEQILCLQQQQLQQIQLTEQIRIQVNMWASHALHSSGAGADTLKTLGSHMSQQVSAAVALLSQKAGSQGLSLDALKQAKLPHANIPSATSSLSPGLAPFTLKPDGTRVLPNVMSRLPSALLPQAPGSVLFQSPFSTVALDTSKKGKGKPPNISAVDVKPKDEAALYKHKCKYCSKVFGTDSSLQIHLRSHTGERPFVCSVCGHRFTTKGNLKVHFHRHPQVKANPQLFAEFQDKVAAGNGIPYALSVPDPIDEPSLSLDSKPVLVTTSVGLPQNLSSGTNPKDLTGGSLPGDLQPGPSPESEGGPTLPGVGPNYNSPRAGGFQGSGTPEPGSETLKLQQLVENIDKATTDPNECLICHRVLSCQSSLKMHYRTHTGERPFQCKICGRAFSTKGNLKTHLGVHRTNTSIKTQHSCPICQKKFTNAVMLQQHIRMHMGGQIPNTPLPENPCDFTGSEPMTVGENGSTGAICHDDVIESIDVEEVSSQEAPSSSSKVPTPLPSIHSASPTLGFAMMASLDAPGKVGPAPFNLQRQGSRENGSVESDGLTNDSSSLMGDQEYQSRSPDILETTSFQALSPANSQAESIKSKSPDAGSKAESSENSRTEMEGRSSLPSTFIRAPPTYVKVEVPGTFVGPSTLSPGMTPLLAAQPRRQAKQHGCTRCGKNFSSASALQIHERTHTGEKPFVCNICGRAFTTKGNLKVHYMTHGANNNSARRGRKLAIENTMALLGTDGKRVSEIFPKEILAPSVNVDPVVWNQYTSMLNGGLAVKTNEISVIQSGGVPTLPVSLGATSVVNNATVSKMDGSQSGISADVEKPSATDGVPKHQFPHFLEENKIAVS
# Method: universal PBM
# Form: double-stranded DNA, one strand shown
# Matrix: in vitro
# Concentration: 600 nM
# Notes: 8-mer, flanks averaged, mean of replicates
# Direction: higher = stronger binding
Sequence,E-score
CGCCCCGA,-0.325
CACAGAGA,-0.00307
CCCACCAC,-0.222
AGCAATTA,0.24
CTAAAAAA,0.328
AAATTGCC,0.207
TCGGCCGA,-0.111
CCCTGCGA,-0.0943
CAGGGGGG,-0.458
CCAATACA,0.216
AGGTTTAA,0.167
GACGTAAA,0.00762
AGTTATGG,0.347
TCAAATAA,0.345
GAGGCAAA,0.057
AATTTCCA,0.194
AAGACTCA,-0.0529
AACTTCAC,0.134

# Set 3
# Target: TAR DNA-binding protein 43, full length, His tag (TARDBP, Homo sapiens, UniProt Q13148, residues 1-414)
# Method: RNA Bind-n-Seq
# Form: RNA
# Matrix: in vitro
# Concentration: 20 nM
# Notes: 6-mer, flanks averaged, single round
# Together with: 150 mM KCl
# Baseline: input library
# Direction: higher = stronger binding
Sequence,6-mer enrichment (R)
CCCAUU,0.651
ACAUAC,0.598
UCCCUA,0.612
AUCUUA,0.547
UAUGAG,1.1
UAAGGG,2.02
UGUUCA,0.603
CUGAAG,0.852
AUAGGA,0.855
CUGAUG,0.791
UCAGGU,0.787
GUCCAG,0.946
AUUCCA,0.582
GACACC,0.882
UGGCGC,1.37
CGAGGG,4.02

# Set 4
# Target: Centromere-binding protein 1, full length, His-tagged (CBF1, Saccharomyces cerevisiae, UniProt P17106, residues 1-351)
# Chain of UniProt P17106 (whole entry, looked up): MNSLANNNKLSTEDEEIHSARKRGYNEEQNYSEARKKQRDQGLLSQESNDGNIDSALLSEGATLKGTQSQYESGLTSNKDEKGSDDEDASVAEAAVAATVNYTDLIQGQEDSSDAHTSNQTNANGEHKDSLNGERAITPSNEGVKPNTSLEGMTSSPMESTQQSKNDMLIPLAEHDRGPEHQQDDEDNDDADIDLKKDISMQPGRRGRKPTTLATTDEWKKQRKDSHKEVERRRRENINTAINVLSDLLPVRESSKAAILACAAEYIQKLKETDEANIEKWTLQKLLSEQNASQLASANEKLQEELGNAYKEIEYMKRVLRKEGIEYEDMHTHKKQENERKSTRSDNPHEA
# Method: competition protein-binding microarray
# Form: double-stranded DNA, one strand shown
# Matrix: in vitro
# Concentration: 2 µM
# Notes: whole 60-bp probe, lowest competitor level
# Together with: Pho4 competitor, 0.05 µM
# Direction: higher = stronger binding
# All sequences stand within: … GTCTTGATTCGCTTGACGCTGCTG
Sequence,fluorescence intensity [a.u.]
GCCGTTCAGCGACTCCATGTGCTCGGGAATCCGCTG,83.5
CGTCCTAGTGATTGCAGGGTGGGTGCCATGAGGAAG,91.5
TGCGCAACAACTTGCCGCGTGGGTGTATGTCTAGAA,78.6
TCCAGGGGGATACTACACGTGTAAGGGTTGAGTATC,892
AGAATGGGCGCTTGTCGCGTGCCAGATCGGGGTTCA,88.3
CTAACGAAGGTTTGTTTGGTGGGTGACAAGCCAAGT,66.8
GTTCCCATTGATTAGCACGTGAAAATCTTAGCGAGT,1620
GGGGAGGATGATTTTCATGTGCGAATATCTACCGGC,103
CGGAAGACGTAGTGGCAGGTGAGGCGGCGAGTTCAG,65.3
AGGCGCGCGCAAAAGCACGCACGGATTGACCGGAGC,80.1
CTTCTGTAAATTTGTCCCGTGGGTGGACGCGCCCCG,119
CCGATTGATAACCATCACGCAAAAAAAAAAGATGAT,102
AACCTCGGGGCTTGGGGCGTGGGACATCGAAAGGGG,105
ATTCGTCAATGAAGGCACATGGGGCGGTAGGGTTCG,107
CTTTCCCGATCTTGTCACGTGACTTTAGCACATTTG,23000
TTCTTTAATAAGTTGGTCGTGGGTACCTGCTGTTGC,74.9
CGGGGTTAAGTTTTTCACGTGGCATGCTTGCAGCAG,612
TGCGCAACAACTTGTTGGGTGGGTGTATGTCTAGAA,51.2
CGGGGTTAAGTTTGGCGGGTGGGTGGCTTGCAGCAG,62.2
CGGTGATAGCGGTTTCACGTGTGTTGATTGTGGTAC,712
AATGCGGCCCAAAAGCACGTGTGGAAAAAAAGTATG,1670
CTTTCCCGATCTTGTCACCGAACTTTAGCACATTTG,73.1
CGTCCTAGTGATTGTCACTTCACTTCCATGAGGAAG,75.1
CCGCTTTGGAATTTATTCGTGCCGAAAAGACTCAAG,68.3
TGCGCAACAACTTGTCACCCCACTTTATGTCTAGAA,76.7

# Set 5
# Sequence: PCHRRVLCFDSTT
# Effect on: cyclin docking binding
# Method: competitive growth deep sequencing
# Form: peptide
# Notes: median of replicates
# Direction: direction not given
target,system,Cln2-subtracted enrichment score
human cyclin E1,yeast cyclin E1-Cln2 system,2.3
human cyclin B1,yeast cyclin B1-Cln2 system,0.4
human cyclin A2,yeast cyclin A2-Cln2 system,1.7

# Set 6
# Target: Interferon regulatory factor 7, full length, phosphomimetic (IRF7, Homo sapiens, UniProt Q92985, residues 1-503, S471D/S472D/S475D/S476D/S477D/S483D/S484D/S487D)
# Method: protein-binding microarray
# Form: double-stranded DNA, one strand shown
# Matrix: in vitro
# Concentration: 2200 nM top
# Notes: 60-bp whole probe
# Together with: salmon DNA 0.4 mg/ml
# Baseline: random background probes
# Direction: higher = stronger binding
# All sequences stand within: GCCTAGCAC … GTCTTGATTCGCTTGACGCTGCTG
# Construct (chain): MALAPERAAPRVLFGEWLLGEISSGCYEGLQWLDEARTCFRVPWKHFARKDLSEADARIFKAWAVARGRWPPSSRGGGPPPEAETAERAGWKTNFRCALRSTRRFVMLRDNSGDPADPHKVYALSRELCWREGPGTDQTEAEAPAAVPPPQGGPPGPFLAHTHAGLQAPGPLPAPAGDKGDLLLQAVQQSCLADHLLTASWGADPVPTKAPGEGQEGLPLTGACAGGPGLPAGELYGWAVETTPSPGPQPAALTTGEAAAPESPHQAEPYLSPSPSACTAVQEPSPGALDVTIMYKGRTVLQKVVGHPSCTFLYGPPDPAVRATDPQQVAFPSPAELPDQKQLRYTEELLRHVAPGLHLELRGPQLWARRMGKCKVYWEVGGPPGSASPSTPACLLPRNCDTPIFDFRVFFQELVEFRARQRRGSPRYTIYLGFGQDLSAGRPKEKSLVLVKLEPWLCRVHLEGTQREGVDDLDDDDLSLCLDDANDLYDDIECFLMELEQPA
Sequence,fitted relative affinity [z-score]
TTAGATATCAGGACTGGATTAGTGCTA,-0.519
GACGGTTTCGACACTGGGGATGTGCTA,2.85
GACGTTATCAGTTTCGAGACGTGCTAG,3.83
TCAGTACTTTCTATCTCACTGTGCTAG,3.75
GACGGTCTCGGTTTCGGGAGGTGCTAG,2.88
GACGGTTTCCTTTACCTGACGTGCTAG,2.46
TATCAGTAGGTAAGGAAAAGGTGCTAG,-0.595
GACGGTTTCGGTCTCGCGACGTGCTAG,6.62
TCATATCTGGGTTCCCCACTGTGCTAG,0.805
TCATACTTGTGTCTAGAACTGTGCTAG,0.92
GAGGGTTCCGGTTTCGGGACGTGCTAG,4.37
TTGGGACTGGACTTTCGGTTAGTGCTA,4.74
AGTTTTTCATTTTTTTTCATGTGCTAG,2.27
CTAGATATCAGTCTCGATTAGTGCTAG,0.665
GTTGGGGCGGGGCGGGGTGGGTGCTAG,1.47
GGAGGGGGGCGGGGCGGTGGGTGCTAG,1.79
TTAGGTTCCGCTTTCGGTTAGTGCTAG,9.04
ATGAGACTGTCACATCCCTGGTGCTAG,0.166
GACGGACTGCTACTGTTGACGTGCTAG,0.183
TCACATTTTTTTATCAAACTGTGCTAG,1.07
GTCGATTTCGGGACTGGAGACGTGCTA,2.2
TCACTTCTGGGCTGTTTAACTGTGCTA,1.27
GACGGTTTCGGTCTCGGCACGTGCTAG,6.45
GACGGCTTCGGTTCCGGGACGTGCTAG,0.635
GACGATATCAGGTTTCGAGACGTGCTA,2.06

# Repeated from above (set 2):
Sequence,E-score
CTAAAAAA,0.328
AAATTGCC,0.207
TCGGCCGA,-0.111
CCCTGCGA,-0.0943
CAGGGGGG,-0.458
CCAATACA,0.216
AGGTTTAA,0.167
GACGTAAA,0.00762
AGTTATGG,0.347
TCAAATAA,0.345
GAGGCAAA,0.057
AATTTCCA,0.194
